Published values collected from several papers.
A part holds a random share of what one study measured. Positions count from the first letter of the parent shown.

Series 1
Target: CCNF, cyclin fold, Cln2 fusion (human)
Method: yeast growth competition, sequencing
Matrix: yeast
Setting: strong parent motif
Baseline: not given
Reading: higher = stronger binding
Starting sequence: GMNC docking peptide (human); KNAKRNLSSEFAN
Change | normalised enrichment score
L7G | 0.456
S8L | 1.56
E10R | 1.15
R5Q | 0.0903
A3M | 0.811
A12W | 0.566

Series 2
Target: RING finger protein unkempt homolog, zinc fingers 1-6, GST-SBP tag (UNK, Homo sapiens, UniProt Q9C0B0, residues 30-357)
UniProt Q9C0B0, sequence (30-357, looked up): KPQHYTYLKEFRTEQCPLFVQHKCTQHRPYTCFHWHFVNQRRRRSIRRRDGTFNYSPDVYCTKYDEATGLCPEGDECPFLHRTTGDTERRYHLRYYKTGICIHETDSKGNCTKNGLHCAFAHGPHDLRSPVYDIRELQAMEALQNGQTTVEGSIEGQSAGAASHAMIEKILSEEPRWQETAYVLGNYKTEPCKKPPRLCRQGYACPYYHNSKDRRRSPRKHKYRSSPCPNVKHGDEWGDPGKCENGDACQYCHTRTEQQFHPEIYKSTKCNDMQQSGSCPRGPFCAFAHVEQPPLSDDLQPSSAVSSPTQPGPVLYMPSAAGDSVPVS
Method: RNA Bind-n-Seq
Molecule type: RNA
Matrix: in vitro
Tested at: not given
Setting: RNA with constant flanks, human and mouse sites, ends assumed
Baseline: input RNA pool
Reading: higher = stronger binding
Shared flanks, not repeated: GGGAGUUCUACAGUCCGACGAUC … CAACAGAGGAUUGAGCAUCA
Strand | bound/input enrichment [ratio]
GGGGGAUUCUACAUCCAGGCAUCAAAGAACACUGUCUUACAUGGCUGCUAUUGAAGUAUAUGACCUUGUCUGAAAGCUGCAGUACCUAACAUCUCUGUUGUGUGCAUUCUACAUAUGCAU | 0.22
CCCUUUGGUAUUGUGAAAGCAUCCUGGCUACCAAAGUUUUCACAUGCUGAUGCCCAGAAGAUGAAGAGACUUCCAACUCCUUCUAUGAUGAAUGAUUAUUAUGCAGCAUCUCCAAGAAUA | 0.105
AAUAAAGCGGUUGUGCUUCGGGGCCAUGAAUCUGAAGUUUUCAUCUGUGCCUGGAACCCUGUUAGUGAUCUCCUGGCAUCAGGGUCUGGAGACUCCACGGCAAGAAUCUGGAACCUCAGU | 0.142
GAAAAGAAUGUGCUGUUUUCACACCUUGAUGAUAACGAGAGAAGUGACAUUUUUGAUGCUAUGUUUCCAGUCUCCUUUAUUGCUGGAGAGACGGUUAUUCAGCAAGGUGAUGAAGGGGAU | 0.244
CUCCUCCGUACUUCUCUCUGAAAGGAAUUUUGUCGUGUUAACCCUAAAGAGAGUGUCCUUAAUAGCAGUGAGCGCUUGGAAGCUUCUCCACUGGUACAUUGGGUUUUCUGUUGGGUGAGU | 0.271
UUGAAUCUGCCCACCUUCAGUGUCCGGGUCAUUGACAAAGAUGGCAUCCACAAUCUGGAGAACAUUGCCUUCCCUAAGCGGGACUCCUAACGUCACGUCCUUCCCUCCCACUCACCAGGG | 0.229

Series 3
Target: Interferon regulatory factor 3, full length, phosphomimetic (IRF3, Homo sapiens, UniProt Q14653, residues 1-427, S386D/S396D/S398D/S402D/T404D/S405D)
Method: protein-binding microarray
Molecule type: double-stranded DNA, one strand shown
Matrix: in vitro
Tested at: 2540 nM top
Setting: 60-bp whole probe
Added: salmon DNA 0.4 mg/ml
Baseline: random background probes
Reading: higher = stronger binding
Shared flanks, not repeated: GCCTAGCAC … GTCTTGATTCGCTTGACGCTGCTG
Residues (chain): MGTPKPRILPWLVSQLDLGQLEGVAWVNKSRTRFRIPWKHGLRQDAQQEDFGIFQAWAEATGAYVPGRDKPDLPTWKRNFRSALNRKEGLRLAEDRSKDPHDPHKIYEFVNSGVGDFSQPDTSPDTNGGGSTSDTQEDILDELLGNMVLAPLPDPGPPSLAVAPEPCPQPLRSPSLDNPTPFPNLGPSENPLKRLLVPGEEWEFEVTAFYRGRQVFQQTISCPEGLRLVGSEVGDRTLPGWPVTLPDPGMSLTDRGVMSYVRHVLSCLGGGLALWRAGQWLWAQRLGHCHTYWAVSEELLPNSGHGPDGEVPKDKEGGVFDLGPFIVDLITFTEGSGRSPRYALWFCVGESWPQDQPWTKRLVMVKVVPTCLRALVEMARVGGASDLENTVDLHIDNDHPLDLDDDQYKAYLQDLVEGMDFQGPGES
Strand | fitted relative affinity
TTCGGACTGGACTTTCGGTTAGTGCTA | 1.02 z-score
TCATGTGTGCATCTATCACTGTGCTAG | -0.0734 z-score
GACGATCGCAGTTTCGAGACGTGCTAG | 1.83 z-score
GTCGGTTTCGGACTGGGGACGTGCTAG | 5.59 z-score
TTAGATATCGGGACTGGAGTAGTGCTA | -0.206 z-score
GACGATCTCAGTATTGAGACGTGCTAG | 0.533 z-score
GAGGAACTGGGGTATCGAGACGTGCTA | -0.903 z-score
TTAGGTCTCGGTTTCGGTTAGTGCTAG | 5.56 z-score
TCAACTTTCTACTTCTCACTGTGCTAG | 1.54 z-score

Further values, each from its own experiment
Molecule | target | assay | system | conditions | scale | quantity | value
PhoQ, residues 284 288 289 292 302 303 SSCLAV | PhoP, residues 12 14 15 18 19 LHHVQ (Escherichia coli, UniProt P23836) | Sort-seq, item: YFP reporter | E. coli | PhoQ-PhoP variant library, added: 10 µM Mg2+ | baseline: high Mg2+ state, higher = stronger signaling | fold induction | 2.42

For quick reference, copied from above (series 3):
Strand | fitted relative affinity
TCATGTGTGCATCTATCACTGTGCTAG | -0.0734 z-score
GACGATCGCAGTTTCGAGACGTGCTAG | 1.83 z-score
GTCGGTTTCGGACTGGGGACGTGCTAG | 5.59 z-score
TTAGATATCGGGACTGGAGTAGTGCTA | -0.206 z-score
